Experimental data pooled from the literature.
Lines come from different studies, so protocols differ. “And” joins repeats or separate records; there may be more than shown. ± gives the spread as reported.
GRM4: Metabotropic glutamate receptor 4 (GRM4, Homo sapiens, UniProt Q14833)
BTK non-phosphorylated: Tyrosine-protein kinase BTK, non-phosphorylated (BTK, Homo sapiens, UniProt Q06187)
RPA1 N-terminal domain: Replication protein A 70 kDa DNA-binding subunit, N-terminal domain (RPA1, Homo sapiens, UniProt P27694)
E3 ubiquitin-protein ligase NEDD4: E3 ubiquitin-protein ligase NEDD4 (Homo sapiens, UniProt P46934)
Grm2: Metabotropic glutamate receptor 2 (Grm2, Rattus norvegicus, UniProt P31421)
GLP1R: Glucagon-like peptide 1 receptor (GLP1R, Homo sapiens, UniProt P43220)
Lysophospholipase-like protein 1: Lysophospholipase-like protein 1 (Mus musculus, UniProt Q3UFF7)

Protein sequences, listed by entry. Tags and fused reporters are not part of them. Residues count along the entry.
UniProt Q14833, 33-912 limits assumed: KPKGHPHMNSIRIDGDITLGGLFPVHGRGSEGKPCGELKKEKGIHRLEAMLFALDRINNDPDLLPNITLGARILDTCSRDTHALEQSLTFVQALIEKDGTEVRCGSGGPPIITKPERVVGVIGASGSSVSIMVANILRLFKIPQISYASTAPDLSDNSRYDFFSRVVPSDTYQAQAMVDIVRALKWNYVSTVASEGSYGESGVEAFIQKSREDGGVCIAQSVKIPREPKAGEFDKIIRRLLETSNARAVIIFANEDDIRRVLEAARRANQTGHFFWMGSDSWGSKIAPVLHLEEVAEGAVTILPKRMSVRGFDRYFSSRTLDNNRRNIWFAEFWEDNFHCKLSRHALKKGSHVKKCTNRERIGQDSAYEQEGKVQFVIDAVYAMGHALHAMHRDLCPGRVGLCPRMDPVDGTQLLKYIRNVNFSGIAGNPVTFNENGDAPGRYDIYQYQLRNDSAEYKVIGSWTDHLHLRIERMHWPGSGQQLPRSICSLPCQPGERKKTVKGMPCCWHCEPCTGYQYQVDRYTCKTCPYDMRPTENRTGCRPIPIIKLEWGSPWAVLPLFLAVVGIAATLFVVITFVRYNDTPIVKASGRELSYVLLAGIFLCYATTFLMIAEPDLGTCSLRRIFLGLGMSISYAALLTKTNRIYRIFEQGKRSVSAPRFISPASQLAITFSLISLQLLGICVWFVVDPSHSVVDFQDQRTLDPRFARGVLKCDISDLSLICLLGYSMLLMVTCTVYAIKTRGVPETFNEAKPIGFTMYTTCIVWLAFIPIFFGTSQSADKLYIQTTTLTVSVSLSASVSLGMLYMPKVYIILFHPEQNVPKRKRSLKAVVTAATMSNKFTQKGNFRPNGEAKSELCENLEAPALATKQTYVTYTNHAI
UniProt Q06187, whole entry: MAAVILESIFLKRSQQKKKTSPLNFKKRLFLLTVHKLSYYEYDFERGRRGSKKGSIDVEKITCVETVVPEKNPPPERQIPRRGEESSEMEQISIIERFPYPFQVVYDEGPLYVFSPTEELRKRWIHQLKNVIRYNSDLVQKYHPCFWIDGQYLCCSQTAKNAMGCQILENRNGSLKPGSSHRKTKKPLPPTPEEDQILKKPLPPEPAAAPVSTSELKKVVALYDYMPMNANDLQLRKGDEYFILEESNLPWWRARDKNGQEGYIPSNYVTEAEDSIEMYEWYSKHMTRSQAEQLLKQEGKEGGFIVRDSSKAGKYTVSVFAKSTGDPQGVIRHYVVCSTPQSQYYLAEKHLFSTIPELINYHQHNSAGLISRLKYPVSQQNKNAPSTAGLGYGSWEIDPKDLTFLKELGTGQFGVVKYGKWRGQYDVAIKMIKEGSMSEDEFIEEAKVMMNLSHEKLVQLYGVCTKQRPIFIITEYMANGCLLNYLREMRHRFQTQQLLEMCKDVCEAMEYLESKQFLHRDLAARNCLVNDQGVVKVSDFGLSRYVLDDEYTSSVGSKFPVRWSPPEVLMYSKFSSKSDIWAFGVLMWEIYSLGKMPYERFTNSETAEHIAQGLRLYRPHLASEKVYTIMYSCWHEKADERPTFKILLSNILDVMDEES
UniProt P46934, whole entry, looked up: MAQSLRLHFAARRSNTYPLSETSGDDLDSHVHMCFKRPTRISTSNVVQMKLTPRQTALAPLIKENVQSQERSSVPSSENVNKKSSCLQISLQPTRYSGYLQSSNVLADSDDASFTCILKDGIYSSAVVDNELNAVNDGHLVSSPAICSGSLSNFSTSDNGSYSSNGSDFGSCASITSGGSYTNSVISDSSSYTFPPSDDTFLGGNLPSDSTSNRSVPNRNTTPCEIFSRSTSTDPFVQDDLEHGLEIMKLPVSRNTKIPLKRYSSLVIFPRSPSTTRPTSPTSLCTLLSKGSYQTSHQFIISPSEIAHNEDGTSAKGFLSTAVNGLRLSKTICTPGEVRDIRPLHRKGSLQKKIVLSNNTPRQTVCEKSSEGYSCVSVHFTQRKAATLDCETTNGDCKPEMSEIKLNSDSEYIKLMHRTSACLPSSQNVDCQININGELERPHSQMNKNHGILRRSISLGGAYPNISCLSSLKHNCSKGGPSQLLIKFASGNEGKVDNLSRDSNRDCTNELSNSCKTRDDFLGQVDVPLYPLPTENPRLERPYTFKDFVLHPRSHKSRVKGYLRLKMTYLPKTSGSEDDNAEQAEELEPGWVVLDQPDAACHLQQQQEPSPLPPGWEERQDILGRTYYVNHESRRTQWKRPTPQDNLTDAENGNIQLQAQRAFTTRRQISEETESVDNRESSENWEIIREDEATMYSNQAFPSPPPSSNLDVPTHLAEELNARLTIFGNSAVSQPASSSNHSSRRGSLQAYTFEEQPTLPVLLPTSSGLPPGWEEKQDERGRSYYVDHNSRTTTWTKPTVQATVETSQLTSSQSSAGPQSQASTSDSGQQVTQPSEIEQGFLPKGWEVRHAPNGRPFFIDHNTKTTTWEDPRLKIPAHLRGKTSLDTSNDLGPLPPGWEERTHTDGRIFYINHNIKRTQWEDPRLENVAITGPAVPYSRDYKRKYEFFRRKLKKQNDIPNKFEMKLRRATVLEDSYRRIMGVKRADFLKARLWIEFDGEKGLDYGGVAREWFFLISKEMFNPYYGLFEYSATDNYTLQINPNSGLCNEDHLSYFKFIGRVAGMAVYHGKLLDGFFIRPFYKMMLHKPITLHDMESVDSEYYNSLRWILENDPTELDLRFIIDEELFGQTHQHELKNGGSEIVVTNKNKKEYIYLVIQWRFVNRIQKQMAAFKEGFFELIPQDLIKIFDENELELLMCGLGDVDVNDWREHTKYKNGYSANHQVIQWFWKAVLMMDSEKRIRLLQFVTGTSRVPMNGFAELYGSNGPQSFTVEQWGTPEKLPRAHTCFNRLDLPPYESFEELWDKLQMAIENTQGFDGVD
UniProt P31421, 19-872 limits assumed: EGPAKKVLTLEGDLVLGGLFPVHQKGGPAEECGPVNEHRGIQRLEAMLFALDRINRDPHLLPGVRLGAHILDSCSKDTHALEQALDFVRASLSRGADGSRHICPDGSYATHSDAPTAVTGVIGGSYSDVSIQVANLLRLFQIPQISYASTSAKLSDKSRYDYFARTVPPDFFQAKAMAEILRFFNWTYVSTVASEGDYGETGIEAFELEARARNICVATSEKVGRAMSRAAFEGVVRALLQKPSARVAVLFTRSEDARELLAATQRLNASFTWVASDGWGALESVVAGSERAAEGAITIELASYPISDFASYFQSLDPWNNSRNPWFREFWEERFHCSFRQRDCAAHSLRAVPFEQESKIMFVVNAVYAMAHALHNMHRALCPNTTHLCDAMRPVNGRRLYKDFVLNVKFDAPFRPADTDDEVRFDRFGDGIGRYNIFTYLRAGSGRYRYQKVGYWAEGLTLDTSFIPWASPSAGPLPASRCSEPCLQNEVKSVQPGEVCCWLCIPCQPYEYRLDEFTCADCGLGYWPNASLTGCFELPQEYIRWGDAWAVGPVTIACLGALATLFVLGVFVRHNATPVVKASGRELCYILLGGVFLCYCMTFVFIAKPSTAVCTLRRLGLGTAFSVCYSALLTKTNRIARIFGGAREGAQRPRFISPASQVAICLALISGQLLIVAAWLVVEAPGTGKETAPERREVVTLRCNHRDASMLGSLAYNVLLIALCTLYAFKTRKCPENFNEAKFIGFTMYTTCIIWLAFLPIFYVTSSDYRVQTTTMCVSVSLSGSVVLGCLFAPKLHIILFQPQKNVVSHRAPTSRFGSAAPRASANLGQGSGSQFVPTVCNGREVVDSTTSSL
UniProt P11473, whole entry: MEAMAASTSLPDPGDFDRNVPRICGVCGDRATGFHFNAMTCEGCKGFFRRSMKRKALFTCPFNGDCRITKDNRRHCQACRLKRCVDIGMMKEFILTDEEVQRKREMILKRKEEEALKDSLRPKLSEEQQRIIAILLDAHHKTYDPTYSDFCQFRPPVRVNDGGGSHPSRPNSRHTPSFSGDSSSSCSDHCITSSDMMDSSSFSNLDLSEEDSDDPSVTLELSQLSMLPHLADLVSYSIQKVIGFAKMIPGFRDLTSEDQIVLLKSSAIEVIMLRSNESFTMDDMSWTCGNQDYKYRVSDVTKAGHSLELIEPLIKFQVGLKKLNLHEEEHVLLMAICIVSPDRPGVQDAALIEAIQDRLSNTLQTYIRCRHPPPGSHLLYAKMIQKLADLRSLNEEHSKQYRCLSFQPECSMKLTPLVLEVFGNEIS
UniProt P22756, 31-920 isoform 4 limits assumed: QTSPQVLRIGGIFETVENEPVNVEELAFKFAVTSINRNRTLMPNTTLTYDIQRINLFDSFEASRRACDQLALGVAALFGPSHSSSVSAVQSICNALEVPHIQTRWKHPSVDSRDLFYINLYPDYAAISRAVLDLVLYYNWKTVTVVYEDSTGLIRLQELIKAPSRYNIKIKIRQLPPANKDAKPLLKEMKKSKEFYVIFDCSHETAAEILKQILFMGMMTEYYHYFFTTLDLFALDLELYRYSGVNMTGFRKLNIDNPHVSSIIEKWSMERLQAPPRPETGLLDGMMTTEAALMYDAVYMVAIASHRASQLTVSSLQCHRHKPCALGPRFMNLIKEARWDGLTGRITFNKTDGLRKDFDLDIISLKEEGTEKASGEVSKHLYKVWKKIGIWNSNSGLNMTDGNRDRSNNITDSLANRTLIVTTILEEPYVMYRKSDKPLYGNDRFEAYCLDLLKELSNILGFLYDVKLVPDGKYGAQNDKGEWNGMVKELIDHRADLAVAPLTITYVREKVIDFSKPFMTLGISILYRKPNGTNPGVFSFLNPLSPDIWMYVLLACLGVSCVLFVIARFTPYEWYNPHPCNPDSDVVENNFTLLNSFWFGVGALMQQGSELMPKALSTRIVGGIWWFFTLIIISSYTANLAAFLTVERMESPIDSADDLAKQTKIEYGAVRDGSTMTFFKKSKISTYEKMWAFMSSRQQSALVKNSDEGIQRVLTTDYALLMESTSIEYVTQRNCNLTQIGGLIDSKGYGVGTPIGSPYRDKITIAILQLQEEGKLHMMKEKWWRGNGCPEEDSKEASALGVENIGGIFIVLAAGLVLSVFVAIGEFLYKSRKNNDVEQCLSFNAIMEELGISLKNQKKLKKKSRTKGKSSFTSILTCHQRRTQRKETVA
UniProt F6QIP2, 1-918: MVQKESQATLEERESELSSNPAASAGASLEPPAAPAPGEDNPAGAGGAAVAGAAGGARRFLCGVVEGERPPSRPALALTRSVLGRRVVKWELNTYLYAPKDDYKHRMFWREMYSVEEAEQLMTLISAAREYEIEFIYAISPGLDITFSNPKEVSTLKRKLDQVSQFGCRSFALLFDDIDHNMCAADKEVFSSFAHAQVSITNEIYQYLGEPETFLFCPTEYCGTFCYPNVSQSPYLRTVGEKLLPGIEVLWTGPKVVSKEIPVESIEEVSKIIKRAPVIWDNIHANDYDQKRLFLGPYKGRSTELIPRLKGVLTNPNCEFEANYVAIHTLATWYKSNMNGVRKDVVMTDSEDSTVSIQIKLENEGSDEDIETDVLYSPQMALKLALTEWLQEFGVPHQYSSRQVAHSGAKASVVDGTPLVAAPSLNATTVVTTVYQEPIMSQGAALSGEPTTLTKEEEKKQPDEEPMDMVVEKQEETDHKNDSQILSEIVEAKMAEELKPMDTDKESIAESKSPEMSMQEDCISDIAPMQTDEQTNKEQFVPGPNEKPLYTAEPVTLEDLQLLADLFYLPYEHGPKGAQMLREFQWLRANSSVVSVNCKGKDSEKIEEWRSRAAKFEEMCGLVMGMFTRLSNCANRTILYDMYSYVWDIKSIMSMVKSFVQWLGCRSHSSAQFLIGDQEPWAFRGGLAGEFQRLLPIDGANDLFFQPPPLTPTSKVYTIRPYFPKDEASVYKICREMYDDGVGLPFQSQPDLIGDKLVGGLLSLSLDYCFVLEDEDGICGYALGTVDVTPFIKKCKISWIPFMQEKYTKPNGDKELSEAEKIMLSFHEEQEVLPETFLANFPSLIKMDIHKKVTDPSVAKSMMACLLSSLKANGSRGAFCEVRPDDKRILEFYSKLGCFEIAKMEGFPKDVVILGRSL
UniProt O15151, 23-111 limits assumed: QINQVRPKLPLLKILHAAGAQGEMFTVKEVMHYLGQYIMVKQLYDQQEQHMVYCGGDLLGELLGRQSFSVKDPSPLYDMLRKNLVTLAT
UniProt O15379, whole entry: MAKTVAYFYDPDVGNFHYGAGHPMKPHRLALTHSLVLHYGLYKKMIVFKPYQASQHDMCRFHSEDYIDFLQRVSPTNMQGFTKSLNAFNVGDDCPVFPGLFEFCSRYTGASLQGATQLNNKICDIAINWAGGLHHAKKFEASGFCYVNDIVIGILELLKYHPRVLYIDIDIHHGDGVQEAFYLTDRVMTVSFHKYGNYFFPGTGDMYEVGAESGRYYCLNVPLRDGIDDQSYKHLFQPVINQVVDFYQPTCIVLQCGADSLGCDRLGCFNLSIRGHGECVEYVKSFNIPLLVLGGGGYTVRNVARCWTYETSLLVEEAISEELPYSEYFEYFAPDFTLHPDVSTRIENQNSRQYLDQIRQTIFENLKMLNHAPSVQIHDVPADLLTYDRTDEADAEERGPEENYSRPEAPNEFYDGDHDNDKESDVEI
UniProt Q9Y618, 389-480 partner limits assumed: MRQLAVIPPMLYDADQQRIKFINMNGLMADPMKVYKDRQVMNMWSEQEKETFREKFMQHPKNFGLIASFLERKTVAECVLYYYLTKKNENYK

| SMILES | target | assay | system | conditions | scale | endpoint | value |
| --- | --- | --- | --- | --- | --- | --- | --- |
| CC(=O)Nc1ccc(-c2nc(C)c(CSc3ccc(OCC(=O)O)c(C)c3)s2)cc1 | Vitamin D3 receptor (VDR, Homo sapiens, UniProt P11473) | reporter gene, antagonist | HEK-293T | up to 100 µM, CYP24A1 promoter luciferase, together with: 1,25(OH)2D3 10 nM | – | IC50 | inactive |
| O=C(NC1CCCCC1)C12CC1/C(=N\O)c1ccccc1O2 (centres unmarked) | GRM4 | positive allosteric modulator, calcium mobilization | CHO expressing Gqi5 | concentration not given, together with: glutamate EC20 | baseline: glutamate 1 mM | response | 124 ± 1.6% |
| Cc1ccnc(NC(=O)c2ccc(-c3nn([C@@H]4CCCN(C(=O)C5CC5)C4)c4ncnc(N)c34)cc2)c1 | BTK non-phosphorylated | TR-FRET binding kinetics | – | 37 °C, unphosphorylated protein | – | koff | 0.00431 ± 0.0003 s⁻¹ |
| O=C(O)CC[C@H](NC(=O)c1cc(C(=O)O)cc([C@H]2CCN[C@@H]2C(=O)O)c1)C(=O)O | Glutamate receptor ionotropic, kainate 1 (Rattus norvegicus, UniProt P22756) | radioligand binding | Sf9 membranes | 10 µM, homomeric receptor, together with: [3H]SYM2081 | – | specific binding | 91 ± 6% |
| CCn1c(-c2cc(NC(=O)c3cnccn3)n[nH]2)cc2ccc(OC)cc21 | Casein kinase II subunit alpha (CSNK2A1, Homo sapiens, UniProt P68400) | enzyme activity, inhibitor | – | – | – | maximal inhibition | 70% |
| Cc1ccc(C(=O)Nc2cccc(C)c2C(=O)O)cc1S(=O)(=O)Nc1cccc(Cl)c1 | RPA1 N-terminal domain | binding, fluorescence polarisation competition | – | together with: FITC-ATRIP probe | – | ligand efficiency | 0.17 |
| Nc1ncnc2c1c(-c1ccc(C(=O)Nc3cc(C4CC4)ccn3)cc1)nn2[C@@H]1CCCN(C(=O)C2CC2)C1 | BTK non-phosphorylated | TR-FRET binding kinetics | – | 37 °C, unphosphorylated protein | – | koff | 0.00434 ± 0.00032 s⁻¹ |
| CCOC(=O)/C=C/CNCCCN1c2ccccc2CCc2ccc([N+](=O)[O-])cc21 | E3 ubiquitin-protein ligase NEDD4 | inhibitor, Ub-TR-FRET | – | 11.11 µM, 1 h preincubation, HECT domain, together with: ATP 2 mM | higher = more ubiquitination | ubiquitination TR-FRET signal AUC | 76700 a.u. and 59900 a.u. and 61100 a.u. |
| Cc1ccc(C(=O)Nc2ccccc2C(=O)O)cc1S(=O)(=O)Nc1ccc(Cl)cc1 | RPA1 N-terminal domain | binding, fluorescence polarisation competition | – | together with: FITC-ATRIP probe | – | ligand efficiency | 0.2 |
| CC(=O)Nc1ncc(CN2CC[C@H](Oc3cccc(F)n3)C[C@@H]2C)s1 [isotope labelled] | Protein O-GlcNAcase (Macaca mulatta, UniProt F6QIP2) | autoradiography | rhesus monkey cerebellum sections | 5 nM, radiolabelled compound | – | binding | 4.1 nCi/mg |
| Cc1ncc(OCc2ccc3c(c2)c(=O)c(C(N)=O)cn3-c2ccc(F)cc2)cn1 | Grm2 | calcium mobilization, negative allosteric modulator | – | 30 µM, together with: glutamate 100 µM | baseline: glutamate maximum | response | 1.71 ± 0.2% |
| Cc1cc(NC(=O)c2cccc(NC(=O)C3=CC(C)(C)CC3=O)c2)ccc1Nc1nccc(-c2cccnc2)n1 | Mitogen-activated protein kinase 8 (MAPK8, Homo sapiens, UniProt P45983) | kinase activity, inhibitor | – | 1.646 µM, unit not given, together with: 10 mM GSH | baseline: DMSO | remaining activity | 0.23 |
| Cc1[nH]c2cc(Cl)cc(Cl)c2c1CCn1cc(CCN)nn1 | GLP1R | cAMP accumulation, positive allosteric modulator, HTRF | – | 0.6 µM, purified compound, together with: GLP-1(9-36) at EC20 | baseline: BETP | Emax | 100 ± 9% |
| CC(C)(C)Nc1c(-c2ccc3c(c2)C(=O)N(C2CCC(=O)NC2=O)C3)nc2ccccn12 (centres unmarked) | WEE1/CRBN (Homo sapiens, UniProt P30291+Q96SW2) | degrader, HiBiT | Jurkat | 5 h | – | Dmax | < 5% |
| COc1ccccc1-c1cc(C(F)(F)F)nc(S(C)(=O)=O)n1 | GLP1R | cAMP accumulation, agonist | HEK293T overexpressing target | no peptide ligand | – | Emax | 75 ± 21% |
| O=C(NCCc1ccccc1)C12CC1/C(=N\O)c1ccccc1O2 (centres unmarked) | GRM4 | positive allosteric modulator, calcium mobilization | CHO expressing Gqi5 | concentration not given, together with: glutamate EC20 | baseline: (±)-PHCCC | response | 55 ± 3.5% |
| Nc1ncn([C@@H]2O[C@H](CO)[C@@H](O)[C@H]2O)c(=O)c1Cl | Adenosine receptor A2b (ADORA2B, Homo sapiens, UniProt P29275) | – | CHO | 10 µM | – | functional activity | inactive |
| O[C@@H]1[C@H](O)[C@@H]2C[C@@H]2[C@H]1n1cnc2c(NCc3cccc([125I])c3)nc(Cl)nc21 | Adenosine receptor A3 (ADORA3, Homo sapiens, UniProt P0DMS8) | – | HEK293 cell membranes | 2 to 4 nM, room temperature | – | time to maximal binding | 3 min |

| SMILES | target | assay | system | conditions | scale | endpoint | value |
| --- | --- | --- | --- | --- | --- | --- | --- |
| CCN(CC)C(=O)Oc1ccccc1C=C1Cc2cc(OC)c(OC)cc2C1=O | Cocaine esterase (CES2, Homo sapiens, UniProt O00748) | inactivator | – | – | – | KI | 6.43 nM |
| O=C(OC(C(F)(F)F)C(F)(F)F)N1Cc2ccc(Br)cc2C1 | Fatty-acid amide hydrolase 1 (FAAH, Homo sapiens, UniProt O00519) | enzyme activity, inhibitor, fluorescence AAMCA substrate | – | 1 µM | – | activity | inactive |
| Cc1cccc(Nc2ncnc3onc(-c4ccc(F)cc4)c23)c1 | Cystic fibrosis transmembrane conductance regulator (CFTR, Homo sapiens, UniProt P13569, del508-508) | – | FRT expressing ΔF508-CFTR | – | baseline: DMSO | iodide influx rate | 113 µM/s |
| CN1CC[C@H](c2c(O)cc(O)c3c(=O)cc(-c4ccccc4F)oc23)[C@H](O)C1 | Cyclin-dependent kinase 7 (CDK7, Homo sapiens, UniProt P50613) | kinase activity, inhibitor, kinase panel | – | concentration not given | – | activity class | inactive |
| Nc1nc(NCCc2ccc(Cl)cc2)nn1S(=O)(=O)c1ccc2ncsc2c1 | Lysophospholipase-like protein 1 | activator, gel-based ABPP FP-rhodamine | – | – | baseline: DMSO | probe labelling | 1.6 fold |
| CCOC(=O)/C=C/CNCCCCN1c2ccccc2CCc2ccc(Cl)cc21 | E3 ubiquitin-protein ligase NEDD4 | inhibitor, Ub-TR-FRET | – | 0.005081 µM, 1 h preincubation, HECT domain, together with: ATP 2 mM | higher = more ubiquitination | ubiquitination TR-FRET signal AUC | 90000 a.u. and 96500 a.u. and 93500 a.u. and 145000 a.u. and 97600 a.u. and 147000 a.u. |
| CC(C)Oc1cc(C#N)ccc1C1=N[C@@H](c2cccc(Cl)c2)[C@@H](c2ccc(Cl)cc2)N1C(=O)N1CCNC(=O)C1 | Protein Mdm4 (MDM4, Homo sapiens, UniProt O15151) | isothermal titration calorimetry | – | 298 K | – | ΔH | -3.3 ± 0.2 kcal/mol |
| NC(=O)c1cn(-c2ccc(F)cc2)c2ccc(OCc3ccncc3)cc2c1=O | Grm2 | calcium mobilization, negative allosteric modulator | – | 30 µM, together with: glutamate 100 µM | baseline: glutamate maximum | response | 1.63 ± 0.33% |
| COc1ccc(NC(=O)CN2CCCN(S(=O)(=O)CC(C)C)CC2)c(OC)c1 | GRM4 | calcium mobilization, positive allosteric modulator | CHO cells with Gqi5 | together with: glutamate | baseline: PHCCC maximal response | maximal response | 21.3 ± 0.9% |
| COC(=O)[C@@]1(C)C=C(C(=O)Nc2cccc(C(=O)NC34CC(Nc5nccc(-c6cccnc6)n5)(C3)C4)c2)C(=O)CC1 | Mitogen-activated protein kinase 9 (MAPK9, Homo sapiens, UniProt P45984) | enzyme activity, inhibitor | – | 0.006774 µM | – | remaining activity | 0.848 fraction of control |
| Nc1nc(SCc2ccc(Cl)cc2)nn1S(=O)(=O)c1ccc(-c2ccccc2)nc1 | Lysophospholipase-like protein 1 | activator, gel-based ABPP, FP-rhodamine | HEK293 overexpressing Lysophospholipase-like protein 1 | 10 µM | – | activation | 5% |
| O=C(Nc1ccc(F)cc1)C12CC1/C(=N\O)c1ccccc1O2 (centres unmarked) | Metabotropic glutamate receptor 1 (Grm1, Rattus norvegicus, UniProt P23385) | antagonist, calcium mobilization | BHK | concentration not given, together with: glutamate EC80 | baseline: maximal glutamate | response | 16% |
| CC(=O)NCCCC[C@H](NC(=O)CNC(=O)[C@H](CC(C)C)NC(C)=O)C(=O)Nc1ccc2c(C)cc(=O)oc2c1 | Histone deacetylase 3/Nuclear receptor corepressor 2 (HDAC3/NCoR2) (Homo sapiens, UniProt O15379+Q9Y618) | substrate | – | pH 7.4, 25 °C | – | kcat/Km | > 100000 M⁻¹ s⁻¹ |
| CCOC(=O)/C=C/CNCCCN1c2ccccc2CCc2ccc(Br)cc21 | E3 ubiquitin-protein ligase NEDD4 | inhibitor, Ub-TR-FRET | – | 0.1372 µM, 1 h preincubation, HECT domain, together with: ATP 2 mM | higher = more ubiquitination | ubiquitination TR-FRET signal AUC | 144000 a.u. and 141000 a.u. and 145000 a.u. |
| CCc1ccc(NC(=O)c2ccc(C)c(S(=O)(=O)Nc3ccc(Cl)c(Cl)c3)c2)c(C(=O)O)c1 | RPA1 N-terminal domain | binding, fluorescence polarisation competition | – | together with: FITC-ATRIP probe | – | ligand efficiency | 0.23 |
| CS(=O)(=O)Oc1ccc(/C=C/c2c[nH]c3ccc(C#N)cc23)cc1 | Amyloid-beta precursor protein, Aβ1-40 (APP, Homo sapiens, UniProt P05067) | Aβ40 aggregation, thioflavin T fluorescence | – | 25 µM | – | inhibition | 57% |
| CC(=O)N[C@@H](CCC(N)=O)C(=O)N[C@H](C(=O)N[C@@H](C)C(=O)N[C@@H](CCCNC(=N)N)C(=O)N[C@@H](CCCCNC(=O)CCc1ccc(N=Nc2ccc(N(C)C)cc2)cc1)C(=O)N[C@@H](CO)C(=O)N[C@H](C(=O)NCC(=O)NCC(=O)NCCCNC(=S)Nc1ccc2c(c1)C(=O)OC21c2ccc(O)cc2Oc2cc(O)ccc21)[C@@H](C)O)[C@@H](C)O | NAD-dependent protein deacetylase sirtuin-3, mitochondrial (SIRT3, Homo sapiens, UniProt Q9NTG7) | enzyme activity, substrate, plate reader kinetics | – | 2.5 µM, 60 nM enzyme, together with: NAD+ | – | Km of NAD+ | 400 µM |

Some of these lines once more:
| SMILES | target | assay | system | conditions | scale | endpoint | value |
| --- | --- | --- | --- | --- | --- | --- | --- |
| Cc1cc(NC(=O)c2cccc(NC(=O)C3=CC(C)(C)CC3=O)c2)ccc1Nc1nccc(-c2cccnc2)n1 | Mitogen-activated protein kinase 8 (MAPK8, Homo sapiens, UniProt P45983) | kinase activity, inhibitor | – | 1.646 µM, unit not given, together with: 10 mM GSH | baseline: DMSO | remaining activity | 0.23 |
| Cc1[nH]c2cc(Cl)cc(Cl)c2c1CCn1cc(CCN)nn1 | GLP1R | cAMP accumulation, positive allosteric modulator, HTRF | – | 0.6 µM, purified compound, together with: GLP-1(9-36) at EC20 | baseline: BETP | Emax | 100 ± 9% |
| CC(C)(C)Nc1c(-c2ccc3c(c2)C(=O)N(C2CCC(=O)NC2=O)C3)nc2ccccn12 (centres unmarked) | WEE1/CRBN (Homo sapiens, UniProt P30291+Q96SW2) | degrader, HiBiT | Jurkat | 5 h | – | Dmax | < 5% |
